Experimental data gathered from unrelated publications.
Each line is one published result; not all experiments were run side by side. ± gives the spread as reported.
Method: steady-state kinetics
B1: enzyme (UniProt A0A2T5C445); chain MKSKQLNTDLFKVQAKQQIRLKNYDPASCNGFANRKEAEHQLKQDIKELADLQYQLYAENKRSVLIVFQAMDAAGKDGSIRHVFSGLNPQGCKVYSFKSPSANELDHDYLWRHYNKLPPRGEIGIFNRSHYENVLITRVHPEFLLNENLPDVHATNDITTEFWERRYRQIRDFEQTLTENGTTIIKFFLHLSKDEQKKRFMERIRKPAKNWKFSSADIRERQYWDDYQHAYEQAMRATSTEEAPWYIIPADNKWFTHVAIGNIIVETLQQMNIQMPEISSEEKDALKKAKKKLQNE
B2: protein G96D/P94L (Streptomyces coelicolor, UniProt P16544); chain MATQDSEVALVTGATSGIGLEIARRLGKEGLRVFVCARGEEGLRTTLKELREAGVEADGRTCDVRSVPEIEALVAAVVERYGPVDVLVNNAGRLGDGATAELADELWLDVVETNLTGVFRVTKQVLKAGGMLERGTGRIVNIASTGGKQGVVHAAPYSASKHGVVGFTKALGLELARTGITVNAVCPGFVETPMAASVREHYSDIWEVSTEEAFDRITARVPIGRYVQPSEVAEMVAYLIGPGAAAVTAQALNVCGGLGNY
B3: GTPBP3 E459K (Homo sapiens, UniProt Q969Y2); chain TRRSSGAPAPGSGATIFALSSGQGRCGIAVIRTSGPASGHALRILTAPRDLPLARHASLRLLSDPRSGEPLDRALVLWFPGPQSFTGEDCVEFHVHGGPAVVSGVLQALGSVPGLRPAEAGEFTRRAFANGKLNLTEVEGLADLIHAETEAQRRQALRQLDGELGHLCRGWAETLTKALAHVEAYIDFGEDDNLEEGVLEQADIEVRALQVALGAHLRDARRGQRLRSGVHVVVTGPPNAGKSSLVNLLSRKPVSIVSPEPGTTRDVLETPVDLAGFPVLLSDTAGLREGVGPVEQEGVRRARERLEQADLILAMLDASDLASPSSCNFLATVVASVGAQSPSDSSQRLLLVLNKSDLLSPEGPGPGPDLPPHLLLSCLTGEGLDGLLEALRKELAAVCGDPSTDPPLLTRARHQHHLQGCLDALGHYKQSKDLALAAKALRVARGHLTRLTGGGGTEEILDIIFQDFCVGK
B4: enzyme (Bacillus pumilus, UniProt A8FFI9); chain EARSIAWSVDEFFKNREGTFVIQEVKEKSPWVYNKKRAKERFAPQSTFKVANALIGLQTGAVRDEYDIKYWDGVKREIDNWNRDHTLGSGMRDSVVWYYQAMARDIGEERMNHWVKAIHYGNKDISGGIDQFWLSSTLRISPIEQVRFLKQLYEETLPFDLKNMRTVKRMMVQEEEKHATLYGKTGSGSDIGWYVGFIKHEHKTYILATNIKGTGIEAKDITYRILKKYHLMEASV
B5: KPR (Staphylococcus aureus, UniProt A0A0J9X283); chain MSLSVAIIGPGAVGTTIAYELQQSLPHTTLIGRHAKTITYYTVPHAPAQDIVVKGYEDVTNTFDVIIIAVKTHQLDAVIPHLTYLAHEDTLIILAQNGYGQLEHIPFKNVCQAVVYISGQKKGDVVTHFRDYQLRIQDNALTRQFRDLVQDSQIDIVLEANIQQAIWYKLLVNLGINSITALGRQTVAIMHNPEIRILCRQLLLDGCRVAQAEGLNFSEQTVDTIMTIYQGYPDEMGTSMYYDIVHQQPLEVEAIQGFIYRRAREHNLDTPYLDTIYSFLRAYQQN
B6: ASRGL1 (Homo sapiens, UniProt Q7L266); chain 1 MNPIVVVHGGGAGPISKDRKERVHQGMVRAATVGYGILREGGSAVDAVEGAVVALEDDPEFNAGCGSVLNTNGEVEMDASIMDGKDLSAGAVSAVQCIANPIKLARLVMEKTPHCFLTDQGAAQFAAAMGVPEIPGEKLVTERNKKRLEKEKHEKGAQKTDCQKNLG; chain 2 TVGAVALDCKGNVAYATSTGGIVNKMVGRVGDSPCLGAGGYADNDIGAVSTTGHGESILKVNLARLTLFHIEQGKTVEEAADLSLGYMKSRVKGLGGLIVVSKTGDWVAKWTSTSMPWAAAKDGKLHFGIDPDDTTITDLP
B7: pol D141A/E143A/G245D (Thermococcus kodakarensis, UniProt P77933); chain 1 MILDTDYITEDGKPVIRIFKKENGEFKIEYDRTFEPYFYALLKDDSAIEEVKKITAERHGTVVTVKRVEKVQKKFLGRPVEVWKLYFTHPQDVPAIRDKIREHPAVIDIYEYDIPFAKRYLIDKGLVPMEGDEELKMLAFAIATLYHEGEEFAEGPILMISYADEEGARVITWKNVDLPYVDVVSTEREMIKRFLRVVKEKDPDVLITYNGDNFDFAYLKKRCEKLGINFALGRDGSEPKIQRMDDRFAVEVKGRIHFDLYPVIRRTINLPTYTLEAVYEAVFGQPKEKVYAEEITTAWETGENLERVARYSMEDAKVTYELGKEFLPMEAQLSRLIGQSLWDVSRSSTGNLVEWFLLRKAYERNELAPNKPDEKELARRRQSYEGGYVKEPERGLWENIVYLDFR; chain 2 SLYPSIIITHNVSPDTLNREGCKEYDVAPQVGHRFCKDFPGFIPSLLGDLLEERQKIKKKMKATIDPIERKLLDYRQRAIKILAN; chain 3 NSYYGYYGYARARWYCKECAESVTAWGREYITMTIKEIEEKYGFKVIYSDTDGFFATIPGADAETVKKKAMEFLKYINAKLPGALELEYEGFYKRGFFVTKKKYAVIDEEGKITTRGLEIVRRDWSEIAKETQARVLEALLKDGDVEKAVRIVKEVTEKLSKYEVPPEKLVIHEQITRDLKDYKATGPHVAVAKRLAARGVKIRPGTVISYIVLKGSGRIGDRAIPFDEFDPTKHKYDAEYYIENQVLPAVERILRAFGYRKEDLRYQKTRQVGLSAWLKPKGT
B8: FNO G29W (Thermobifida fusca, UniProt Q47RA9); chain MIMIMASKSSPHDLPDVSGLSIAVLGGTWDQGRGLARRFAMAGHEVILGSRSAERAQAVAAELGEGLPVRGMDNAGAAEAGDVVIVAVPWDGHRALLESLKDVLAGKIVVDCVNPLGFDKRGAYALPVEEGSAAEQAAAILPDSRVVAAFHHVSAVLLLDPEVEKVDLDVLVLGDDREATDVVRALAARIPGVRGVYGGRLRNAHQVEAFTANLISINRRYKAHAGIRITDI
B9: MTRR A129T (Homo sapiens, UniProt Q9UBK8); chain MRRFLLLYATQQGQAKAIAEEICEQAVVHGFSADLHCISESDKYDLKTETAPLVVVVSTTGTGDPPDTARKFVKEIQNQTLPVDFFAHLRYGLLGLGDSEYTYFCNGGKIIDKRLQELGARHFYDTGHTDDCVGLELVVEPWIAGLWPALRKHFRSSRGQEEISGALPVASPASSRTDLVKSELLHIESQVELLRFDDSGRKDSEVLKQNAVNSNQSNVVIEDFESSLTRSVPPLSQASLNIPGLPPEYLQVHLQESLGQEESQVSVTSADPVFQVPISKAVQLTTNDAIKTTLLVELDISNTDFSYQPGDAFSVICPNSDSEVQSLLQRLQLEDKREHCVLLKIKADTKKKGATLPQHIPAGCSLQFIFTWCLEIRAIPKKAFLRALVDYTSDSAEKRRLQELCSKQGAADYSRFVRDACACLLDLLLAFPSCQPPLSLLLEHLPKLQPRPYSCASSSLFHPGKLHFVFNIVEFLSTATTEVLRKGVCTGWLALLVASVLQPNIHASHEDSGKALAPKISISPRTTNSFHLPDDPSIPIIMVGPGTGIAPFIGFLQHREKLQEQHPDGNFGAMWLFFGCRHKDRDYLFRKELRHFLKHGILTHLKVSFSRDAPVGEEEAPAKYVQDNIQLHGQQVARILLQENGHIYVCGDAKNMAKDVHDALVQIISKEVGVEKLEAMKTLATLKEEKRYLQDIWS
Sequence of UniProt O60656 (whole entry, looked up): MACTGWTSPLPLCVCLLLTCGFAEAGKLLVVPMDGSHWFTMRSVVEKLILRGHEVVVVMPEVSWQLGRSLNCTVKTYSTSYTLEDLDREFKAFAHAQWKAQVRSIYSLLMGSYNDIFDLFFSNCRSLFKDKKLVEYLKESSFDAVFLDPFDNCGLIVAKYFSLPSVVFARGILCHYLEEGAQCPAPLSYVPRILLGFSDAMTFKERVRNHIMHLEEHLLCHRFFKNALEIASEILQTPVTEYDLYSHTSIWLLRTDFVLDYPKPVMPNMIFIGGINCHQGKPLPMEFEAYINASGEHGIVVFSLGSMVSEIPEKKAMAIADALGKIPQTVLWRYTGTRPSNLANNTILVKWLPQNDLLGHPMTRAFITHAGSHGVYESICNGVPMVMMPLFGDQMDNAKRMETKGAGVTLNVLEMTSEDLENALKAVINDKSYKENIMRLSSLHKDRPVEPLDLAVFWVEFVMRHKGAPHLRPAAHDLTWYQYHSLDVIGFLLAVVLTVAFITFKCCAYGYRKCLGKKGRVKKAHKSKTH
Sequence of UniProt P76044 (whole entry, looked up): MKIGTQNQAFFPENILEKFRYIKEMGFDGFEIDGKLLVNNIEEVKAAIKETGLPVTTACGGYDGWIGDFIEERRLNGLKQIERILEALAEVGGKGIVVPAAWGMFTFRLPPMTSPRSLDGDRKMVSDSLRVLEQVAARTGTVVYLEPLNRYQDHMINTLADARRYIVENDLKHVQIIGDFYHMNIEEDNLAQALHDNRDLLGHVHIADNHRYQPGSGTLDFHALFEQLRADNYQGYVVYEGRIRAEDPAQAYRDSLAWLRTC
Sequence of UniProt F1QXD3 (whole entry, looked up): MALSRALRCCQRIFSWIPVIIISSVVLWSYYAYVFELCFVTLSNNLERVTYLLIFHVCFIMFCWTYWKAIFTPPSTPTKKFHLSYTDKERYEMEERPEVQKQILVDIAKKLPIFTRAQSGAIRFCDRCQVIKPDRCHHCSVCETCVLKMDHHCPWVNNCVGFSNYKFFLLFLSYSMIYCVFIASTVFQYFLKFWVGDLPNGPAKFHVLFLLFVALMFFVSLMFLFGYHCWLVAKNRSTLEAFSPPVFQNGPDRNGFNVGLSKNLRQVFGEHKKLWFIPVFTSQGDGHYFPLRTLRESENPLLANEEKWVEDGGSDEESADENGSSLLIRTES
Sequence of UniProt P07914 (whole entry, looked up): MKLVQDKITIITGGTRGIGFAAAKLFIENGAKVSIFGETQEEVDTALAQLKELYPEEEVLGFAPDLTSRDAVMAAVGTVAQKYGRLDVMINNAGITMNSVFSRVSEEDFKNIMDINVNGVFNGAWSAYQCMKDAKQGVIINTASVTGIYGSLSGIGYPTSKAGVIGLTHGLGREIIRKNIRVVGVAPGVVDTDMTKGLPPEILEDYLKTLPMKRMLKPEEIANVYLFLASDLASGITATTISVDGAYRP

Substance	substrate	pH	temperature	setting	with	quantity	value
protein (Danio rerio, UniProt F1QXD3)	CCCCCCCCCCCCCCCC(=O)SCCNC(=O)CCNC(=O)[C@H](O)C(C)(C)COP(=O)(O)OP(=O)(O)OC[C@H]1O[C@@H](n2cnc3c(N)ncnc32)[C@H](O)[C@@H]1OP(=O)(O)O	pH 6.8	30 °C	–	–	kcat	0.243 ± 0.0133 s⁻¹
ycjR (Escherichia coli, UniProt P76044)	CO[C@@H]1O[C@H](CO)[C@@H](O)C(=O)[C@H]1O	pH 8	30 °C	–	MnCl2 0.5 mM, NADH 0.3 mM	kcat	4 ± 0.6 s⁻¹
speG (Vibrio cholerae, UniProt Q9KL03)	NCCCNCCCCNCCCN	pH 9	37 °C	–	–	kcat	38.9 s⁻¹
B1 (enzyme)	Nc1ncnc2c1ncn2[C@@H]1O[C@H](COP(=O)(O)O)[C@@H](O)[C@H]1O	pH 8	30 °C	–	–	kcat	98 ± 9.8 s⁻¹
B2 (protein G96D/P94L)	O[C@H]1CCCc2ccccc21	pH 7.4	–	phosphate 400 mM, NADPH 250 µM printed	NADP+, reverse reaction	kcat	0.23 ± 0.02 s⁻¹
B3 (GTPBP3 E459K)	Nc1nc2c(ncn2[C@@H]2O[C@H](COP(=O)(O)OP(=O)(O)OP(=O)(O)O)[C@@H](O)[C@H]2O)c(=O)[nH]1	pH 8	37 °C	KCl 300 mM	–	kcat	0.0282 ± 0.004 s⁻¹
B4 (enzyme)	C[C@H]1[C@H](NC(=O)/C(=N\OC(C)(C)C(=O)O)c2csc(N)n2)C(=O)N1S(=O)(=O)O	pH 7	–	–	–	kcat	0.51 ± 0.02 s⁻¹
B5 (KPR)	CC(C)(CO)C(=O)C(=O)O	pH 7.5	25 °C	substrate inhibition fit	NADPH 50 µM	kcat	16.6 ± 0.6 s⁻¹
B6 (ASRGL1)	COC(=O)[C@H](Cc1ccccc1)NC(=O)C[C@H](N)C(=O)O	pH 7.4	37 °C	NaCl 100 mM	–	kcat	3.5 ± 0.1 s⁻¹
BaiA1 (Clostridium scindens, UniProt P07914)	C[C@H](CCC(=O)SCCNC(=O)CCNC(=O)[C@H](O)C(C)(C)COP(=O)(O)OP(=O)(O)OC[C@H]1O[C@@H](n2cnc3c(N)ncnc32)[C@H](O)[C@@H]1OP(=O)(O)O)[C@H]1CC[C@H]2[C@@H]3CC[C@@H]4C[C@H](O)CC[C@]4(C)[C@H]3CC[C@]12C	pH 8.7	37 °C	–	NAD+	kcat	0.733 s⁻¹
UGT1A9 (Homo sapiens, UniProt O60656)	COc1cc(OC)c2c(=O)c(O)c(-c3ccccc3)oc2c1	pH 7.4	37 °C	–	–	Km	0.13 µM
enzyme (Limosilactobacillus reuteri, UniProt Q8GP32)	OC[C@H]1O[C@@](CO)(O[C@H]2O[C@H](CO)[C@@H](O)[C@H](O)[C@H]2O)[C@@H](O)[C@@H]1O	pH 5.5	50 °C	apparent	–	kcat	760 ± 100 s⁻¹
B7 (pol D141A/E143A/G245D)	Nc1nc2c(ncn2[C@H]2C[C@H](O)[C@@H](COP(=O)(O)OP(=O)(O)OP(=O)(O)O)O2)c(=O)[nH]1	pH 8	55 °C	–	–	kcat	7 ± 0.9 s⁻¹
B8 (FNO G29W)	CC(=O)c1ccc[n+](Cc2ccccc2)c1	pH 8	25 °C	–	F420H2 40 µM	kcat	4.2 ± 0.233 s⁻¹
B9 (MTRR A129T)	O=C1C(Cl)=CC(=Nc2ccc(O)cc2)C=C1Cl	pH 7.5	37 °C	substoichiometric FMN	NADPH	kcat	0.058 ± 0.005 s⁻¹

Repeated from above:
Substance	substrate	pH	temperature	setting	with	quantity	value
speG (Vibrio cholerae, UniProt Q9KL03)	NCCCNCCCCNCCCN	pH 9	37 °C	–	–	kcat	38.9 s⁻¹
B1 (enzyme)	Nc1ncnc2c1ncn2[C@@H]1O[C@H](COP(=O)(O)O)[C@@H](O)[C@H]1O	pH 8	30 °C	–	–	kcat	98 ± 9.8 s⁻¹
